Measurements gathered from unrelated publications.
Protocols differ between the studies behind these lines. Numbers after ± are the reported error.
Cell line: A549

SMILES | assay | setting | scale | endpoint | value
Cc1cc(=O)oc2cc(OCCCCCCSC#N)ccc12 | cell growth or viability, SRB |  |  | GI50 | 3.5 µM
CCN(C(=O)c1cc(F)ccc1Oc1nncnc1N1CCC2(C1)CN([C@H](CCCN(C)CCOC)C(C)C)C2)C(C)C | cell growth or viability | 72 h |  | GI50 | > 10 µM
NC1=C(Cl)C(=O)c2cccc([N+](=O)[O-])c2C1=O | MTT |  | relative to: IC50 MRC-5 over IC50 A549 | selectivity index | 0.36
CCNc1cc2c(cc1C)C1(c3cc(C)c(NCC)cc3O2)c2ccccc2C(=O)N1N=Cc1c[c-]c(-c2ccccn2)cc1.Cc1c(C)c(-c2ccc(-c3ccccc3)cc2)[c-](C)c1C.[Cl-].[Ir+3] | PI flow cytometry | 0.5 x IC50, 24 h |  | G2/M phase cells | 12.91 ± 0.01%
CCCC(CCC)C(=O)OCc1cn(-c2cc3ccccc3oc2=O)nn1 | NCI60 single dose | 10 µM |  | growth | 88.7%
COc1c(C)c(OC(=O)c2ccccc2)c(C)c(OC(=O)c2ccccc2)c1C(=O)/C=C/c1ccccc1 |  |  | relative to: CL over A549 | selectivity index | 0.82
COc1cc(/C=C/C(=O)CC(C)=O)ccc1O | PI staining flow cytometry | 50 µM, 48 h |  | cells in pre-G1 phase | 54.5%
COc1c(C)c(O)c(C(=O)C=Cc2ccccc2)c(OC)c1C |  |  | relative to: CL over A549 | selectivity index | 1
O=[C]=[Mn-2]12(=[C]=O)(=[C]=O)[O]c3cc4c(cc3=[N+]1CCc1ccccc1)[O][Mn-2](=[C]=O)(=[C]=O)(=[C]=O)([N+]=4CCc1ccccc1)[n+]1ccc(cc1)C(=O)Oc1ccccc1OC(=O)c1cc[n+]2cc1 | MTT | 50 µM, 48 h, photolysed compound |  | viability reduction | 87%
C[C@@H]1O[C@H]2O[C@@H]3C4(O)C(=O)c5cccc(O)c5C(=O)C4(O)O[C@]3(C)[C@]21O (stereo partly drawn) | cell growth or viability, MTT | 48 h |  | EC50 | 128 µM
COC(=O)c1cc(NC2=NC(=O)C(=Cc3ccc(N(C)C)cc3)S2)ccc1OC(C)=O | measured: CHEK2 mRNA | 2.93 µM (IC50), 24 h | relative to: DMSO | fold change | 0.0594
CCCCCCCCCCCCCCCCCCOc1ccccc1CCOP(=O)([O-])OCC[N+](C)(C)C | cell growth or viability, SRB | 10 µM |  | inhibition | 38.6%
O=C1C(Cl)=C(Cl)C(=O)c2c(O)ccc(O)c21 | MTT |  | relative to: IC50 MRC-5 over IC50 A549 | selectivity index | 0.71
Nc1ccc[n+]([Pt-2]([Cl])([Cl])[n+]2cccc(N)c2Cl)c1Cl | cell viability, MTT | 48 h |  | IC25 | 23 µM
COc1cc(/C=C/c2cc(C)n[nH]2)ccc1O | PI staining flow cytometry | 50 µM, 48 h |  | cells in S phase | 6.48%
CN(C)CCN1CCN(c2ccc3nc(-c4ccc5nc(-c6ccc(C(F)(F)F)cc6)[nH]c5c4)[nH]c3c2)CC1 | SRB | 10 µM, 48 h |  | growth percent | 83.8%
CCCC[N+]1=c2cc3c4cc2[O][Mn-2]1(=[C]=O)(=[C]=O)(=[C]=O)[n+]1ccc(cc1)C(=O)OCCOCCOC(=O)c1cc[n+](cc1)[Mn-2](=[C]=O)(=[C]=O)(=[C]=O)([O]3)[N+]=4CCCC | MTT | 50 µM, 48 h, photolysed compound |  | viability reduction | 69%
CCCC[C@H]1C(=O)N(C)[C@@H](CCCC)C(=O)N[C@@H](CCCCNC(=S)Nc2ccc(CN3CCN(CC(=O)O)CCN(CC(=O)O)CC3)cc2)C(=O)N[C@H](C(=O)NCC(N)=O)CSCC(=O)N[C@@H](Cc2ccc(O)cc2)C(=O)N(C)[C@@H](C)C(=O)N[C@@H](CC(N)=O)C(=O)N2CCC[C@H]2C(=O)N[C@@H](Cc2c[nH]cn2)C(=O)N[C@@H](CCC(=O)O)C(=O)N2C[C@H](O)C[C@H]2C(=O)N[C@@H](Cc2c[nH]c3ccccc23)C(=O)N[C@@H](CO)C(=O)N[C@@H](Cc2cn(CC(=O)O)c3ccccc23)C(=O)N1C [fluorine-18 labelled] | binding | concentration not given, 30 min, 4 °C | relative to: added activity | cell-bound activity | 0.62 ± 0.11%
COc1cccc2c1cc1c3c(cc4c(c32)OCO4)[C@@H]2c3c4c5c(cc6c(c5c5cccc(OC)c35)OCO6)CCN4[C@@H]2N1C (racemic) | cytotoxicity, MTT | 50 µg/mL, 48 h |  | inhibition | < 50%
Cc1c(Cl)c(=O)oc2cc(OCCCCCCSC#N)ccc12 | cell growth or viability, SRB |  |  | GI50 | 14 µM
CCCC[N+]1=c2cc3c4cc2[O][Mn-2]1(=[C]=O)(=[C]=O)(=[C]=O)[n+]1ccc(cc1)C(=O)Nc1ccccc1NC(=O)c1cc[n+](cc1)[Mn-2](=[C]=O)(=[C]=O)(=[C]=O)([O]3)[N+]=4CCCC | MTT | 50 µM, 48 h, photolysed compound |  | viability reduction | 90%
CC(C)(COP(=O)(O)OP(=O)(O)OC[C@H]1O[C@@H](n2cnc3c(N)ncnc32)[C@H](O)[C@@H]1OP(=O)(O)O)[C@@H](O)C(=O)NCCC(=O)NCCSCCC(=O)N[C@@H](CO)C(=O)NCC(=O)N[C@@H](CCCNC(=N)N)C(=O)NCC(=O)N[C@@H](CCCCN)C(=O)NCCCC[C@H](NC(=O)CC[C@@H]1NC(=O)[C@@H](CCCNC(=N)N)NC(=O)[C@H](CCCNC(=N)N)NC(=O)[C@@H](CCCNC(=N)N)NC(=O)[C@H](CCCNC(=N)N)NC(=O)[C@H](Cc2csc3ccccc23)NC(=O)[C@@H](Cc2ccccc2)NC(=O)[C@H](Cc2ccccc2)NC1=O)C(N)=O | histone H4 Nα-acetylation, Western blot, measured: histone H4 Nα-acetylation | 2 days |  | EC50 | 3.6 µM
Cc1cc(/C=C/c2ccc(O)c(O)c2)[nH]n1 | PI staining flow cytometry | 50 µM, 48 h |  | cells in S phase | 6.07%
O=[C]=[Mn-2]12(=[C]=O)(=[C]=O)[O]c3cc4c(cc3=[N+]1CCc1ccccc1)[O][Mn-2](=[C]=O)(=[C]=O)(=[C]=O)([N+]=4CCc1ccccc1)[n+]1ccc(cc1)C(=O)OCCOC(=O)c1cc[n+]2cc1 | MTT | 50 µM, 48 h, photolysed compound |  | viability reduction | 89%
